Results of several laboratories.
A part holds a random share of what one study measured. Positions count from the first letter of the parent shown.

Sample 1
Target: CEBPD, bZIP domain (human)
Technique: DHFR protein complementation
Matrix: yeast
Notes: single substitutions, most at no-binding floor
Baseline: wild-type JUN-FOS pair
Direction: higher = stronger binding
Measurement: binding fitness
Starting sequence: JUN, bZIP domain (human); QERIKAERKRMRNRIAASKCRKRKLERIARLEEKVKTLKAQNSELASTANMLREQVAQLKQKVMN; partner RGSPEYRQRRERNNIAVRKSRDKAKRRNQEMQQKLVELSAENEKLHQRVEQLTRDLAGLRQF
T37D: -1.32 natural log
A46L: -1.34 natural log
E33T: -1.42 natural log
E33L: -1.42 natural log
E44T: -1.37 natural log
L59G: -1.47 natural log
V56G: -1.5 natural log
K36P: -1.51 natural log
V35I: -1.17 natural log
L52C: -1.59 natural log
A46M: -1.28 natural log
V56A: -1.48 natural log
E44F: -1.38 natural log
Q55E: -1.41 natural log
K36N: -1.25 natural log
L52G: -1.52 natural log
A49H: -1.41 natural log
V35M: -1.45 natural log
A46K: -1.25 natural log
N42C: -1.28 natural log
R53W: -1.4 natural log
E32S: -1.37 natural log
S47F: -1.39 natural log
T48E: -1.41 natural log
L31T: -1.4 natural log

Sample 2
Target: Histone acetyltransferase KAT6A, both winged helices, GST fusion (KAT6A, Homo sapiens, UniProt Q92794, residues 1-181)
Technique: protein binding microarray
Molecule type: double-stranded DNA, one strand shown
Matrix: in vitro
Tested at: not given
Notes: 8-mer, flanks averaged, mean of 2 arrays, mostly near background
Baseline: not given
Direction: higher = stronger binding
Measurement: E-score
Residues (chain): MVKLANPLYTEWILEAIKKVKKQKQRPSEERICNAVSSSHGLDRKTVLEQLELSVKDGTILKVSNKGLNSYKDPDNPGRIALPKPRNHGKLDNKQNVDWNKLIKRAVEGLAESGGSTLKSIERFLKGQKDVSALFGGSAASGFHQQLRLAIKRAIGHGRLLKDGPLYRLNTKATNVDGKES
CTGAGGTA: -0.232
CGCTCTAC: 0.147
ACGACGGA: 0.222
CGCGTCCC: 0.2
CCCCGAAA: -0.0925
AGGGCGGG: 0.237
TTAATCAA: -0.0323
CTTCGGCC: 0.0433
AAAAGTCA: -0.0255
CGGTCGGA: 0.11
CGCTGTTA: 0.201
CGCTGTGA: -0.0293
AACATACT: -0.139
CGAAATGC: -0.0813
GGAGCTAC: -0.12
AACGGTTA: 0.131
GCCTTTGA: -0.0571
CTTGTCTC: -0.221
AGAACACT: -0.00403
GGCTACGA: 0.0857
CACCCATA: -0.144
ATATTTAC: 0.0286
GGGAGCGA: -0.0127
ATGATAGA: -0.0642
ACTCGGAT: 0.108

Sample 3
Target: ABI1, truncated, D143A, DHFR fusion (Arabidopsis thaliana)
Technique: DHFR PCA, deep sequencing
Matrix: yeast
Notes: methotrexate growth selection, single substitutions
With: (+)-ABA 0.032 µM
Baseline: wild-type fitted maximum
Direction: higher = stronger binding
Measurement: relative binding score
Starting sequence: PYL1, truncated, DHFR fusion (Arabidopsis thaliana); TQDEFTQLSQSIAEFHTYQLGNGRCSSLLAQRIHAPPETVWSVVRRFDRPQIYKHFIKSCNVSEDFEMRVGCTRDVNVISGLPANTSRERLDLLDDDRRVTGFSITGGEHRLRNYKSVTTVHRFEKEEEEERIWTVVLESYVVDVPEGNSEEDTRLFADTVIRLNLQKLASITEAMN
V100K: 4.73%
D65F: -3.99%
T154N: -14.9%
M68G: -1.5%
H122D: -4.7%
E131R: 49.6%
L169W: -0.739%
G148R: -0.852%
L164S: 7.36%
I162H: 4.91%
S9P: -1.94%
S117P: 4.28%
I57D: 0.408%
S9M: 31.3%
P83H: 12.8%
L28E: 2.86%
V70K: 0.958%
E125I: 33%
K116D: -2.72%

Sample 4
Target: RNA binding protein fox-1 homolog 2, RRM domain, GST-SBP tag (RBFOX2, Homo sapiens, UniProt O43251-10, residues 100-194)
Technique: RNA Bind-n-Seq
Molecule type: RNA
Matrix: in vitro
Tested at: 365 nM
Notes: natural RNA segment, single round, ends assumed
Baseline: no-protein control
Direction: higher = stronger binding
Measurement: RBNS enrichment (R)
Construct (chain): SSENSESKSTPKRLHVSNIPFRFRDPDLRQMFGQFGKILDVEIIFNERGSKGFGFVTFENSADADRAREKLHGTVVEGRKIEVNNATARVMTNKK
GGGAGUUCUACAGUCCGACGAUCAAAUUCAGUGAGGCUAAAGGGAUACUUGAAUGUUAUUUUUUUUCUCCUAAGAAAAUGGGAGGCUACAUGCACUGGAUAUGUCCUUGGGAAAAUCUUUGGGGAACAAACUUUGGAAUUCUCGGGUGCCAA: 1.1
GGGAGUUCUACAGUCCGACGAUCCCAGGCCAUGAUGGGCUGGCGACAGCCCGGCUGAGCUUCAGUGAGGUGCCACCAGCACCCGUGCCUCCGAAGACCGCUCGGGCAUUCCGCCUGCGCCCUGGGACAGCGGAUGGAAUUCUCGGGUGCCAA: 0.369
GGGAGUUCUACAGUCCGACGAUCGGAACGAGGCAUCUGGAGCUUCCUACUCUCCAGUUUCUCUGUGGAAAUAAAACAUGACUCUUUGUUUCCCUGAGACUCUCUUGACUCCUUAUUCAAUACGACCCUGCUGAUGGAAUUCUCGGGUGCCAA: 0.889
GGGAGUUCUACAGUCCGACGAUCUUUCUCACACCAAGGCAGAUGCUCCUCUGGUGGGAGGGUGCUGGCCCUGGCAAGAUUGAAGGAUGUGCAGGGCUUCCUCUCAGAGCCGCCCAAACUGCCGUUGAUGUGUGUGGAAUUCUCGGGUGCCAA: 0.559
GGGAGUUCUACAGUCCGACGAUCCACGCCCAGGGGAUGUCCUCACGCUGUCGCCGCGCGGUUUCCCUUCGCAGAUGUGUAUACUCAUGAUAGGUCAGAAAGUGUAUCCGCUACAAUAAAGUUCUGGUUCUAACUGGAAUUCUCGGGUGCCAA: 0.267
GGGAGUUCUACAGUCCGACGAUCGUGUGCGUGUGUUUUGCUCAUUUCUUUAGGGAACUUGGGAGUCGGGGUUGGAGGUGCUGGGCAAUGGAACUUCAAAUUCAAUGUCGCCCAGCAGUGAGGGGAGUCGGGAGUGGAAUUCUCGGGUGCCAA: 1.1
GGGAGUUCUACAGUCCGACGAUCAAAAAGAAAAACAAUGAAAAAAAAUAAAGACACCGCCAUCACCUAUUUAAAUAUCCACUGUGUGUGUCACAAAGUUGUUCUUUUGAGUGCAAUAAAGAUAGCUUAACACAUGGAAUUCUCGGGUGCCAA: 0.93
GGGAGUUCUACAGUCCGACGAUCUUCUUCUUCUUCCCAUUCCUGUCUGCCGCCUGAGGAGCGUCCGCCGCUGGAGGAGGCUUUGGUGCAUGUUGCUGUGAAGUCCUUCCGUGUGGCCACCCAGCCAGCUGGAGUGGAAUUCUCGGGUGCCAA: 7.04
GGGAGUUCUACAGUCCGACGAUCAUAAUAAAUGAAGAUGCCUAAAAUAGUGUUCCAAACUUUCAUGGUCAUUUUCAUUUUUACUGAAACAAAUUCAAAAGAACAGUCUUGGUUCCCCAAAUCACUUCAAUCUCUGGAAUUCUCGGGUGCCAA: 0.376
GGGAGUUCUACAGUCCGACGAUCUGUGACGUCUCUUUGUUAACCUAAGUAUAUCUAUUUUCGGCAAUAAGGUAAGGACGGCCGUGUUUUGAGGGUCUUCCUUUCCUAUGAGUGCUUUUUCUUUUCUUCUGUUCUGGAAUUCUCGGGUGCCAA: 0.601
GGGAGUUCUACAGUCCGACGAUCAGCUCAGGUGAAAGACUGAGAUGAAUGUCUUUCCUCUCCCUGCCUCCCACCAGACUUCCUCCUGGAAAACGCUUUGGUAGAUUUGGCCAGGAGCUUUCUUUUAUGUAAAUUGGAAUUCUCGGGUGCCAA: 0.386
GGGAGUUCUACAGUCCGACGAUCACCGGGGUGAGAAGGUCAUCCUUUUUCAGUACUAACGCUGCCGGCACUUCCGCAUCUGCCCGUGGGCGCCCCACAGCUGCCCCUCAGCCGCUGAGAUCCAGUGUCCAAGCUGGAAUUCUCGGGUGCCAA: 0.502

Sample 5
Target: RING finger protein unkempt homolog, zinc fingers 1-6, GST-SBP tag (UNK, Homo sapiens, UniProt Q9C0B0, residues 30-357)
Sequence of UniProt Q9C0B0 (30-357, looked up): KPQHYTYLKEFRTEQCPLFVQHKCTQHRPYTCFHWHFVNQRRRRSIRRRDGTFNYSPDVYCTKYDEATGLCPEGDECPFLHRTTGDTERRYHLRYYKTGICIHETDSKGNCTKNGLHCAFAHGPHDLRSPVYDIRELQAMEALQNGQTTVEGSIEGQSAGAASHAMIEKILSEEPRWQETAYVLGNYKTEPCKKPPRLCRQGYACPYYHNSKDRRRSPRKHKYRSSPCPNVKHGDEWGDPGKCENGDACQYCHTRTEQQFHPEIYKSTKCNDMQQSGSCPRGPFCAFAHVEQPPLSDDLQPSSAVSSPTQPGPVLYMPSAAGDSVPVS
Technique: RNA Bind-n-Seq
Molecule type: RNA
Matrix: in vitro
Tested at: not given
Notes: RNA with constant flanks, human and mouse sites, ends assumed
Baseline: input RNA pool
Direction: higher = stronger binding
Measurement: bound/input enrichment
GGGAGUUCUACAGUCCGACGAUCGGCCGGCGGCGGCGCGCGGACUCCGCAUCCCGCACCCCGAUGGUAGCCGAGGAGCUGGUGUAAUUACUUCAAGCCUCCAGGAUGGCAAUCCAGUUCCGUUCGCUCUUCCCCUUGGCAUUGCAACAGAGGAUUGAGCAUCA: 0.202 ratio
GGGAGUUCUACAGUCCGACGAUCUCCAGGACUCUCAAGCUGGCAUCAUAUUAUUUGUUAUUUAAAAGACACAAUUAUUUUAGGUAGAUCUUUUUUUUUAAUGAGGUGGGGUAAGGCUGUGACUUUUGAUCUAAACAAAAGAUCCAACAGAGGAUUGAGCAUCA: 15.2 ratio
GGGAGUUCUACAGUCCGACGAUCCUCUCAAUCAUGGAGAAAUUGGAAUUCUUCGAUUUUUCUUAUGACCUUAACCUGUGUGGGCUGACAGAGGACCCAGAUCUUCAGGUUUCUGCGAUGCAGCACCAGACAGUGCUGGAACUGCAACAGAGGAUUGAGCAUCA: 0.178 ratio
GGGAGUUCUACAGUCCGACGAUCGGGGCAUUAAUUGCUUCUCUUAUCAACUGCUACAUCAGAGAUAAUGCCGCUGUUGAUGGCAUUAGUUUACAUUUACAGGAUAUCUGCCCACUUCUAUAUAGCACUGAUGAUGCAAUUUGUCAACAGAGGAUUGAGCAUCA: 1.27 ratio
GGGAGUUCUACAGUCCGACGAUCAUUCUCUCUUCUCCUCCAGACACAAUGGCACUGCUUAUCUCCGAAAUGGUGUGAUCGUCUCCUCAUUGAGCAGCGGCUGCCACCGCGCUGUGGGUAGUGUGUGACCGUGGCUGUACUGUACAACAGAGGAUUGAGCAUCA: 0.352 ratio
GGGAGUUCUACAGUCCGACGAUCGUGAUUGAGAGUUCUGAAUCCCUGGACUGUCAGUUACUGGCUGUCACUCACGCAGGUGUAAGGCUGUAUUUCAGCACUUGUCCGUUUAGACAGCCAUUAGCUCGGCCGAAUACACUGACACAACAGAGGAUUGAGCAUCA: 0.138 ratio
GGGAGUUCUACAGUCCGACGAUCUAUUUUUAUAAUUUUUACUGAUGCUCAGUAACCAUGAAAAACUGUGCACAUUCAUGUACUAAUAGAUCUGUACCUAUCUAUCUCUGUACGCAUAUAUACAGUUCACUGUAGAAAACCACACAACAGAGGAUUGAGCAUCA: 1.62 ratio
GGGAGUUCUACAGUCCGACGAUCUCCAGAAGCUAUUUGAAACUAAGAGACUUUGUGCUUGUGAAGUUUUGUCAAUUUUUGCCCAGUUUCUCCCGGGAAAGAUUACUGCAAGGAUUCAGUGAAGAUAUGGCAAUACAGGCACAGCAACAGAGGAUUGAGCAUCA: 0.27 ratio
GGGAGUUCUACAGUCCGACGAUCAUGGGGGCUAAUCCCUAUGGCCAAGCAGCAGCAUCUAACCAACUGGGUUCCUGGCCCGAUGGCAUGUUGUCCAUGGAACAAGUUUCUCAUGGCACUCAAAAUAGGCCUCUUCUUAGGAAUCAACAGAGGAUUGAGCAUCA: 0.169 ratio
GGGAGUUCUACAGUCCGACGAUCGAAGACACAGAGGCAAAGAAUCCAUUUUCAACUCAGGACACUGAUUUAGAUUUGGAGAUGCUGGCUCCCUAUAUCCCAAUGGAUGAUGAUUUCCAGUUACGUUCCUUUGAUCAGUUGUCACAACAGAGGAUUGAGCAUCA: 0.169 ratio
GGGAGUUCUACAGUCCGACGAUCGAACAUGUUGACAAACUGAAAAUCCCUCCUGAAGAAAUGAAACAAAUGGAACAAAAGUUGAUUAGAGACUUCCAAGAAUAUGUAGAGCCAGGAGAAGACUUCCCGGCUUCUCCCCAGAGACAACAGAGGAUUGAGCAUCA: 0.834 ratio

Sample 6
Target: CCNB1, cyclin fold, Cln2 fusion (human)
Technique: yeast growth competition, sequencing
Matrix: yeast
Notes: weak parent motif
Baseline: not given
Direction: higher = stronger binding
Measurement: normalised enrichment score
Starting sequence: CDKN1B docking peptide (human); PSACRNLFGPVDH
PSACRNLPGPVDH [F8P]: 0.369
PSACRNLGGPVDH [F8G]: -0.48
PSANRNLFGPVDH [C4N]: 0.209
PSCCRNLFGPVDH [A3C]: 0.818
PSACRNLFGPVDG [H13G]: 0.356
PSRCRNLFGPVDH [A3R]: 0.45
PSACRQLFGPVDH [N6Q]: 0.913
PSACRNLFGHVDH [P10H]: -0.088
PSACRNLFQPVDH [G9Q]: 0.561
PSACYNLFGPVDH [R5Y]: 0.379
SSACRNLFGPVDH [P1S]: 0.0708
PSACLNLFGPVDH [R5L]: 0.316
PSACRNLFGPVDA [H13A]: 0.55
KSACRNLFGPVDH [P1K]: 1.09
PSACRNLMGPVDH [F8M]: 0.0351
ESACRNLFGPVDH [P1E]: 0.196

A few entries again (sample 2):
ATGATAGA: -0.0642
CGCTCTAC: 0.147
CTTCGGCC: 0.0433
CGGTCGGA: 0.11
GGAGCTAC: -0.12
GGGAGCGA: -0.0127
ACGACGGA: 0.222
GGCTACGA: 0.0857
GCCTTTGA: -0.0571
AGAACACT: -0.00403
